Experimental data collected from several papers.
± gives the spread as reported.
PTGS1: Prostaglandin G/H synthase 1 (PTGS1, Ovis aries, UniProt P05979)
Adhesin FmlH lectin domain: Adhesin FmlH, lectin domain (Escherichia coli, UniProt Q1RBS0)
MAL12: Alpha-glucosidase MAL12 (MAL12, Saccharomyces cerevisiae S288c, UniProt P53341)
HTR5A: 5-hydroxytryptamine receptor 5A (HTR5A, Homo sapiens, UniProt P47898)
HRH2: Histamine H2 receptor (HRH2, Homo sapiens, UniProt P25021)
USP51: Ubiquitin carboxyl-terminal hydrolase 51 (USP51, Homo sapiens, UniProt Q70EK9)
ATM: Serine-protein kinase ATM (ATM, Homo sapiens, UniProt Q13315)
CAPN1: Calpain-1 catalytic subunit (CAPN1, Homo sapiens, UniProt P07384)

For `CS(=O)(=O)c1ccc(-n2cc(C=NN=c3[nH]c(-c4ccc(Br)cc4)cs3)c(-c3ccc([N+](=O)[O-])cc3)n2)cc1` (mixture of isomers), the inhibition was 1.93% (PTGS1; enzyme activity; 0.01 µM).
`O=C(O)c1cccc(-c2ccccc2O[C@@H]2O[C@H](CO)[C@H](O)[C@H](O)[C@H]2O)c1` gave an inhibition of 22.9 ± 5.1% (Adhesin FmlH lectin domain; binding to desialylated bovine submaxillary mucin, inhibitor, ELISA competition; UPEC UTI89; 1 µM).
`N=C(N)NCCCC(NC(=O)C(CC(=O)NO)Cc1ccc2ccccc2c1)C(=O)NC(Cc1c[nH]c2ccccc12)C(=O)NC(CCC(=O)O)C(N)=O` (centres unmarked) has an inhibition of 22% (Neutrophil collagenase (MMP8, Homo sapiens, UniProt P22894); 1 µM).
`C[C@@H]1O[C@@H](Oc2ccc(CC(N)=O)cc2)[C@H](O)[C@H](O)[C@H]1O` gave an inhibition of 44.9 ± 2.82% (MAL12; inhibitor; 100 µg/mL, 0.4167 h, added: p-nitrophenyl glucoside substrate).
`CC(C)Cn1c(SCC(=O)N2CCc3ccccc3C2)nc2cc(Cl)ccc2c1=O` gave an inhibition of 12% (HTR5A; ligand displacement, radioligand; 10 µM).
With `C[Si](C)(C)C[C@@H](CN)CC(=O)O` the inhibition was -42% (High affinity choline transporter 1 (Rattus norvegicus, UniProt Q9JMD7); ligand displacement, radioligand; 75 µM).
For `O=C1c2sc(-c3ccc(N4CCC(CO)CC4)nc3F)nc2CCN1c1cccnc1`, the inhibition was -4% (HRH2; ligand displacement, radioligand; 1 µM).
For `COc1cc(C(=O)Nc2ccc3c(c2)C(=O)N(C)C2=NCCN23)cc(OC)c1OC`, the inhibition was 41.9 ± 12.9% (USP51; enzyme activity, inhibitor; 1 µM).
The inhibition of `CCOC(=O)CCCCC1NCCc2ccc(O)c(O)c21` (centres unmarked) is reported as 20.2 ± 3.45% (MAL12; enzyme activity, inhibitor; 100 µM, DMSO solvent, added: pNPG substrate).
The inhibition of `CN(C)C/C=C/C(=O)Nc1ccc2nc(NCCCCCN(C)C)nc(NCCCCCCN(C)C)c2c1` is reported as 1% (Histone-lysine N-methyltransferase 2C (KMT2C, Homo sapiens, UniProt Q8NEZ4); enzyme activity, inhibitor, radiometric; 10 µM).
`CCn1cc(-c2cccc(C(F)(F)F)c2)c2sc(C(=N)NC3CCS(=O)(=O)CC3)cc2c1=O` gave an inhibition of -13.4% (Bromodomain testis-specific protein, BD2 (BRDT, Homo sapiens, UniProt Q58F21); 1 µM).
`O=C1CO[C@H](CNC(=O)C2(c3ccc(Cl)cc3)CC2)CN1C1Cc2ccccc2C1` gave an inhibition of 13% (C-X-C chemokine receptor type 6 (CXCR6, Homo sapiens, UniProt O00574); β-arrestin recruitment, antagonist; 1 µM).
`N#Cc1ccccc1O[C@@H]1O[C@H](CO)[C@H](O)[C@H](O)[C@H]1O` has an inhibition of 12.1 ± 6.3% (Adhesin FmlH lectin domain; binding to desialylated bovine submaxillary mucin, inhibitor, ELISA competition; UPEC UTI89; 1 µM).
`COc1ccc(OC)c(NC(=O)Cn2cnc3nc(N4CCCC4)ncc3c2=O)c1` has an inhibition of 6.5 ± 1.4% (USP51; enzyme activity, inhibitor; 1 µM).
The inhibition of `O=C(O)[C@H]1O[C@@H](Oc2ccc([N+](=O)[O-])cc2)[C@H](O)[C@@H](O)[C@H]1O` is reported as -2.4 ± 5.2% (Adhesin FmlH lectin domain; binding to desialylated mucin, ELISA competition; UPEC UTI89; 100 µM).
`CC(=O)C12NC(C)(C)CC1(C)C(=O)C1=C2c2c(c3c4n2C(C)(C)CC2=C4C4(CC(C)(C)NC(C)(C4)C2=O)CC3(C)C)C(=O)C(C)(C)N1` (single isomer, unassigned; (+)) gave an inhibition of 2.66 ± 0.02% (Voltage-dependent T-type calcium channel subunit alpha-1H (CACNA1H, Homo sapiens, UniProt O95180); ion current, antagonist, whole-cell patch clamp; HEK293T; 10 µM).
The inhibition of `CN(Cc1ccc(/C=C/C(=O)NO)cc1)CC12CC3CC(CC(C3)C1)C2` is reported as 6% (human CCR1 receptor; radioligand binding; 0.05 µM).
With `Cc1ccc(-c2nn(-c3ccc(S(C)(=O)=O)cc3)cc2C=NN=c2[nH]c(-c3ccc(Br)cc3)cs2)cc1` (mixture of isomers) the inhibition was 84.2% (PTGS1; enzyme activity; 100 µM).
`CN1CC[C@@H](COc2cnc(C#N)cc2-c2ccn3nc(NC(=O)C4CC4)cc3c2)C1` gave an inhibition of -8% (ATM; enzyme activity, inhibitor; 1 µM).
The inhibition of `CS(=O)(=O)c1ccc(-n2cc(C=NN=c3[nH]c(-c4ccc([N+](=O)[O-])cc4)cs3)c(-c3ccc(Br)cc3)n2)cc1` is reported as 87.7% (PTGS1; enzyme activity; 100 µM).
With `Cc1[nH]nc2c1N=C(c1ccccc1Cl)c1cnc(N3CCOCC3)cc1N2` the inhibition was 3% (Alpha-1B adrenergic receptor (Adra1b, Rattus norvegicus, UniProt P15823); cell-free assay; 10 µM).
With `COc1cc(C(=O)Nc2nnc(-c3nc4ccccc4n(C)c3=O)o2)cc(OC)c1OC` the inhibition was 8.1 ± 2.7% (USP51; enzyme activity, inhibitor; 1 µM).
`Cc1ccc(O[C@@H]2O[C@H](CO)[C@H](O)[C@H](O)[C@H]2O)cc1` has an inhibition of 16.5 ± 3.3% (Adhesin FmlH lectin domain; binding to desialylated mucin, ELISA competition; UPEC UTI89; 10 µM, added: desialylated bovine submaxillary mucin).
With `Cc1ccnc(OC[C@H]2CN(CCN3CCc4ccccc43)CCO2)c1` the inhibition was -11.6% (HTR5A; radioligand binding; concentration not given, added: [3H]LSD).
With `Cc1ccccc1O[C@@H]1O[C@H](CO)[C@H](O)[C@H](O)[C@H]1O` the inhibition was 1.8 ± 5.7% (Adhesin FmlH lectin domain; binding to desialylated bovine submaxillary mucin, inhibitor, ELISA competition; UPEC UTI89; 1 µM).
For `COc1ccc(C(=O)Nc2c(-c3cccs3)nc3ccccn23)cc1`, the inhibition was less than 50% (HTR5A; ligand displacement, radioligand; 10 µM).
The inhibition of `COc1cc(NC2(c3ccccc3)C(=O)c3ccccc3C2=O)cc(OC)c1OC` is reported as 3.6 ± 1.1% (USP51; enzyme activity, inhibitor; 1 µM).
`CS(=O)(=O)c1ccc(-n2cc(C=NN=c3[nH]c(-c4ccc([N+](=O)[O-])cc4)cs3)c(-c3ccc([N+](=O)[O-])cc3)n2)cc1` has an inhibition of 88.4% (PTGS1; enzyme activity; 100 µM).
With `O=C1c2sc(-c3ccc(N4CCC(F)C4)nc3F)nc2CCN1c1cccnc1` (centres unmarked) the inhibition was -31% (Endothelin-1 receptor (EDNRA, Homo sapiens, UniProt P25101); ligand displacement, radioligand; 1 µM).
The inhibition of `OC[C@H]1O[C@H](Oc2ccc(-c3ccccc3)cc2)[C@H](O)[C@@H](O)[C@H]1O` is reported as 22.6 ± 3.9% (Adhesin FmlH lectin domain; binding to desialylated mucin, ELISA competition; UPEC UTI89; 10 µM, added: desialylated bovine submaxillary mucin).
For `CC[C@H](C)[C@H](NC(=O)[C@@H](N)C(C)C)C(=O)N[C@@H](Cc1ccc(O)cc1)C(=O)NCC(=O)N1CCC[C@H]1C(=O)N[C@@H](CO)C(=O)N[C@H](C(=O)N[C@@H](Cc1ccccc1)C(=O)O)C(C)C`, the inhibition was 75.3% (Angiotensin-converting enzyme (ACE, Homo sapiens, UniProt P12821); enzyme activity, inhibitor, HPLC; 530 µg/mL).
With `C/C=C/C(=O)Nc1ccc2nc(NCCCCCN(C)C)nc(NCCCCCCN(C)C)c2c1` the inhibition was 95% (Histone-lysine N-methyltransferase SETD2 (SETD2, Homo sapiens, UniProt Q9BYW2); enzyme activity, inhibitor, radiometric; 50 µM).
For `COc1cc(OC)c(F)c(/C=C/c2cnc3ccn(S(=O)(=O)c4cn(CCF)cn4)c3n2)c1F`, the inhibition was 3.1% (Platelet-derived growth factor receptor beta (PDGFRB, Homo sapiens, UniProt P09619); 100 nM).
The inhibition of `O=C(NCCn1cccc1-c1nc(-c2ccc3c(c2)OCO3)no1)c1cccc(F)c1` is reported as 16.6 ± 3.9% (USP51; enzyme activity, inhibitor; 1 µM).
`Brc1ccccc1-c1nnc(CSc2nnnn2-c2ccccc2)o1` gave an inhibition of 22% (HRH2; ligand displacement, radioligand; 10 µM).
`COCC(=O)N1CCc2cc(-c3csc(NC(=O)c4cc(OC)cc(OC)c4)n3)ccc21` gave an inhibition of -7% (B1 bradykinin receptor (BDKRB1, Homo sapiens, UniProt P46663); cell-free assay; 10 µM).
`Cc1ccc(CNC(=O)C(CCc2ccccc2)NC(=O)C(NC(=O)Cc2cccc(Oc3ccccc3)c2)C(C)O)cc1` (centres unmarked) gave an inhibition of 29% (CAPN1; enzyme activity, inhibitor; 100 µM).
With `COc1ccc(C(=O)Nc2cc3c(cc2C#N)OCO3)cc1S(=O)(=O)NCc1ccco1` the inhibition was 35.1 ± 11.6% (USP51; enzyme activity, inhibitor; 1 µM).
With `CCCC(=O)O[C@@]1(C)CN(Cc2ccccc2)[C@H]2C[C@@H]1CC(=O)[C@@H]2C` the inhibition was 19% (Mu-type opioid receptor (Cavia porcellus, UniProt A0ACM8Q262); binding, radioligand binding; guinea pig brain membranes; 1 µM, added: [3H]DAMGO).
With `Cc1nc2c(F)cc(-c3nc(Nc4ccc(CNC(=O)CCCCCCC(=O)NO)cc4)ncc3F)cc2n1C(C)C` the inhibition was 4% (ATM; enzyme activity, inhibitor; 1 µM).
`COc1ccc2c(c1)C(CC(=O)NC(C(=O)NC(CCc1ccccc1)C(=O)NCc1ccc(C)cc1)C(C)O)CC2=O` (centres unmarked) has an inhibition of 8% (CAPN1; enzyme activity, inhibitor; 100 µM).
For `Cc1ccc(-c2nn(-c3ccc(S(C)(=O)=O)cc3)cc2C=NN=c2[nH]c(-c3ccc([N+](=O)[O-])cc3)cs2)cc1`, the inhibition was 60.3% (PTGS1; enzyme activity; 10 µM).
`COc1cc(-c2cn(C)c(=O)c3cnccc23)cc(OC)c1CN(C)C` gave an inhibition of -16% (Bromodomain testis-specific protein, BD1 (BRDT, Homo sapiens, UniProt Q58F21); 1 µM).
For `OC[C@H]1O[C@@H](Oc2cccc3cccnc23)[C@H](O)[C@@H](O)[C@H]1O`, the inhibition was 95.1 ± 1.1% (Adhesin FmlH lectin domain; binding to desialylated mucin, ELISA competition; UPEC UTI89; 100 µM).
The inhibition of `CCNc1nc(NCC)n2c(SCC(=O)c3ccc(OC)cc3)nnc2n1` is reported as 18.9 ± 7.1% (USP51; enzyme activity, inhibitor; 1 µM).
`OC[C@H]1O[C@H](Oc2ccccc2-c2ccccc2)[C@H](O)[C@@H](O)[C@H]1O` gave an inhibition of 19.2 ± 3% (Adhesin FmlH lectin domain; binding to desialylated mucin, ELISA competition; UPEC UTI89; 100 µM).
`Cc1ccc(CNC(=O)[C@H](CCc2ccccc2)NC(=O)[C@H](CCc2ccccc2)NC(=O)Cc2cccc(Oc3ccccc3)c2)cc1` gave an inhibition of -12% (Plasminogen (PLG, Homo sapiens, UniProt P00747); enzyme activity, inhibitor; 100 µM).
